Measurements gathered from unrelated publications.
± gives the spread as reported.
T1: ATRX ADD domain 167-289 K251R/F284Y (Homo sapiens); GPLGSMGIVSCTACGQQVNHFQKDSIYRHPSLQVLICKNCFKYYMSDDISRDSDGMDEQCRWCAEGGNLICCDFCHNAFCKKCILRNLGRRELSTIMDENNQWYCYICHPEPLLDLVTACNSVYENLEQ
B1: dnaG 537-597 (Geobacillus stearothermophilus, UniProt Q9X4D0); chain MAADDVSEQELEDYIRHVLNRPKWLMLKVKEQEKTEAERRKDFLTAARIAKEMIEMKKMLSSS
B2: Flrt3 29-359 (Mus musculus, UniProt Q8BGT1); chain KSCPSVCRCDAGFIYCNDRSLTSIPVGIPEDATTLYLQNNQINNVGIPSDLKNLLKVQRIYLYHNSLDEFPTNLPKYVKELHLQENNIRTITYDSLSKIPYLEELHLDDNSVSAVSIEEGAFRDSNYLRLLFLSRNHLSTIPGGLPRTIEELRLDDNRISTISSPSLHGLTSLKRLVLDGNLLNNHGLGDKVFFNLVNLTELSLVRNSLTAAPVNLPGTSLRKLYLQDNHINRVPPNAFSYLRQLYRLDMSNNNLSNLPQGIFDDLDNITQLILRNNPWYCGCKMKWVRDWLQSLPVKVNVRGLMCQAPEKVRGMAIKDLSAELFDCKDSG
B3: EFR3B 716-787 (Homo sapiens, UniProt Q9Y2G0); chain VPAEEITYETLKKAIVDSVAVEEQERERRRQVVEKFQKAPFEEIAAHCGARASLLQSKLNQIFEITIRPPPS
B4: Cacna1c 1647-1777 (Mus musculus, UniProt Q01815); sequence looked up; chain NALSLQAGLRTLHDIGPEIRRAISGDLTAEEELDKAMKEAVSAASEDDIFRRAGGLFGNHVTYYQSDSRGNFPQTFATQRPLHINKTGNNQADTESPSHEKLVDSTFTPSSYSSTGSNANINNANNTALGR
B5: C1S 438-688 S632A (Homo sapiens, UniProt P09871); chain IIGGSDADIKNFPWQVFFDNPWAGGALINEYWVLTAAHVVEGNREPTMYVGSTSVQTSRLAKSKMLTPEHVFIHPGWKLLEVPEGRTNFDNDIALVRLKDPVKMGPTVSPICLPGTSSDYNLMDGDLGLISGWGRTEKRDRAVRLKAARLPVAPLRKCKEVKVEKPTADAEAYVFTPNMICAGGEKGMDSCKGDAGGAFAVQDPNDKTKFYAAGLVSWGPQCGTYGLYTRVKNYVDWIMKTMQENSTPRED
B6: IgG L:G68E; V domains shown; VH QVQLVQSGAEVKKPGASVKVSCKASGYTFTNYGLSWVRQAPGQGLEWMGWISANNGDTNYGQEFQGRVTMTTDTSTSTAYMELRSLRSDDTAVYYCARDSSSSWARWFFDLWGRGTLVTVSS; VL SYVLTQPPSVSVAPGKTARITCGGNIIGSKLVHWYQQKPGQAPVLVIYDDGDRPSGIPERFSGSNSENTATLTISRVEAGDEADYYCQVWDTGSDPVVFGGGTKLTVL
B7: FLT3LG 27-185 (Homo sapiens, UniProt P49771); sequence looked up; chain TQDCSFQHSPISSDFAVKIRELSDYLLQDYPVTVASNLQDEELCGGLWRLVLAQRWMERLKTVAGSKMQGLLERVNTEIHFVTKCAFQPPPSCLRFVQTNISRLLQETSEQLVALKPWITRQNFSRCLELQCQPDSSTLPPPWSPRPLEATAPTAPQPP
B8: PLXNA2 RBD 1490-1600 (Homo sapiens, UniProt O75051); sequence looked up; chain LIRQQIEYKTLILNCVNPDNENSPEIPVKVLNCDTITQVKEKILDAVYKNVPYSQRPRAVDMDLEWRQGRIARVVLQDEDITTKIEGDWKRLNTLMHYQVSDRSVVALVPK
B9: IGSF10 1646-1933 (Homo sapiens, UniProt Q6WRI0); sequence looked up; chain EKPRIVGGKAASFTIPANSDAFLPCEAVGNPLPTIHWTRVPSGLDLSKRKQNSRVQVLPNGTLSIQRVEIQDRGQYLCSASNLFGTDHLHVTLSVVSYPPRILERRTKEITVHSGSTVELKCRAEGRPSPTVTWILANQTVVSESSQGSRQAVVTVDGTLVLHNLSIYDRGFYKCVASNPGGQDSLLVKIQVIAAPPVILEQRRQVIVGTWGESLKLPCTAKGTPQPSVYWVLSDGTEVKPLQFTNSKLFLFSNGTLYIRNLASSDRGTYECIATSSTGSERRVVMLT
B10: CFH domains 1108-1231 (Homo sapiens, UniProt P08603); sequence looked up; chain KCGPPPPIDNGDITSFPLSVYAPASSVEYQCQNLYQLEGNKRITCRNGQWSEPPKCLHPCVISREIMENYNIALRWRAKQKLYSRTGESVEFVCKRGYRLSSRSHTLRTTCWDGKLEYPTCAKR
B11: mglB (Myxococcus xanthus, UniProt Q1DB03); sequence looked up; chain MGTQLVMYEEEFTKINAVCDRLTKDANAKVVFLVDKNGQLISSAGQTQNIDTTSLASLTAGNVAAMGGLAKLIGENEFPNQFHEGAKDSLYMTIVGSRVVLVVIFDNRTSLGLVRLRIKKASDELTKIFESLVKKTDSPGAGSPFAEISDDDIDNLFSE
B12: Bcl2l11 (Mus musculus, UniProt O54918-2); chain MAKQPSDVSSECDREGGQLQPAERPPQLRPGAPTSLQTEPQDRSPAPMSCDKSTQTPSPPCQAFNHYLSAMASIRQSQEEPEDLRPEIRIAQELRRIGDEFNETYTRRVFANDYREAEDHPQMVILQLLRFIFRLVWRRH
B13: CKS1 (Saccharomyces cerevisiae, UniProt P20486); sequence looked up; chain MYHHYHAFQGRKLTDQERARVLEFQDSIHYSPRYSDDNYEYRHVMLPKAMLKVIPSDYFNSEVGTLRILTEDEWRGLGITQSLGWEHYECHAPEPHILLFKRPLNYEAELRAATAAAQQQQQQQQQQQQQQQQHQTQSISNDMQVPPQIS
B14: PUX2 1-149 (Arabidopsis thaliana, UniProt Q9ZU93); chain MDDVKDKLKGFMKKVNLSSSSGKFKGQGRVLGSSSSSSAPPVNPIQNRFNSSQAPNPTPRPKPNPNPLPEKPLSSSDQKISGSTRNPDHDPVRAPQDGFDPYGAFITSSNRSQNGYSLSMFECPICKNPFTSEEEVSVHVESCLGDTNG
B15: CFH domains 1108-1231 W1183R (Homo sapiens, UniProt P08603); sequence looked up; chain KCGPPPPIDNGDITSFPLSVYAPASSVEYQCQNLYQLEGNKRITCRNGQWSEPPKCLHPCVISREIMENYNIALRRTAKQKLYSRTGESVEFVCKRGYRLSSRSHTLRTTCWDGKLEYPTCAKR
Chain of UniProt P01024 (whole entry, looked up): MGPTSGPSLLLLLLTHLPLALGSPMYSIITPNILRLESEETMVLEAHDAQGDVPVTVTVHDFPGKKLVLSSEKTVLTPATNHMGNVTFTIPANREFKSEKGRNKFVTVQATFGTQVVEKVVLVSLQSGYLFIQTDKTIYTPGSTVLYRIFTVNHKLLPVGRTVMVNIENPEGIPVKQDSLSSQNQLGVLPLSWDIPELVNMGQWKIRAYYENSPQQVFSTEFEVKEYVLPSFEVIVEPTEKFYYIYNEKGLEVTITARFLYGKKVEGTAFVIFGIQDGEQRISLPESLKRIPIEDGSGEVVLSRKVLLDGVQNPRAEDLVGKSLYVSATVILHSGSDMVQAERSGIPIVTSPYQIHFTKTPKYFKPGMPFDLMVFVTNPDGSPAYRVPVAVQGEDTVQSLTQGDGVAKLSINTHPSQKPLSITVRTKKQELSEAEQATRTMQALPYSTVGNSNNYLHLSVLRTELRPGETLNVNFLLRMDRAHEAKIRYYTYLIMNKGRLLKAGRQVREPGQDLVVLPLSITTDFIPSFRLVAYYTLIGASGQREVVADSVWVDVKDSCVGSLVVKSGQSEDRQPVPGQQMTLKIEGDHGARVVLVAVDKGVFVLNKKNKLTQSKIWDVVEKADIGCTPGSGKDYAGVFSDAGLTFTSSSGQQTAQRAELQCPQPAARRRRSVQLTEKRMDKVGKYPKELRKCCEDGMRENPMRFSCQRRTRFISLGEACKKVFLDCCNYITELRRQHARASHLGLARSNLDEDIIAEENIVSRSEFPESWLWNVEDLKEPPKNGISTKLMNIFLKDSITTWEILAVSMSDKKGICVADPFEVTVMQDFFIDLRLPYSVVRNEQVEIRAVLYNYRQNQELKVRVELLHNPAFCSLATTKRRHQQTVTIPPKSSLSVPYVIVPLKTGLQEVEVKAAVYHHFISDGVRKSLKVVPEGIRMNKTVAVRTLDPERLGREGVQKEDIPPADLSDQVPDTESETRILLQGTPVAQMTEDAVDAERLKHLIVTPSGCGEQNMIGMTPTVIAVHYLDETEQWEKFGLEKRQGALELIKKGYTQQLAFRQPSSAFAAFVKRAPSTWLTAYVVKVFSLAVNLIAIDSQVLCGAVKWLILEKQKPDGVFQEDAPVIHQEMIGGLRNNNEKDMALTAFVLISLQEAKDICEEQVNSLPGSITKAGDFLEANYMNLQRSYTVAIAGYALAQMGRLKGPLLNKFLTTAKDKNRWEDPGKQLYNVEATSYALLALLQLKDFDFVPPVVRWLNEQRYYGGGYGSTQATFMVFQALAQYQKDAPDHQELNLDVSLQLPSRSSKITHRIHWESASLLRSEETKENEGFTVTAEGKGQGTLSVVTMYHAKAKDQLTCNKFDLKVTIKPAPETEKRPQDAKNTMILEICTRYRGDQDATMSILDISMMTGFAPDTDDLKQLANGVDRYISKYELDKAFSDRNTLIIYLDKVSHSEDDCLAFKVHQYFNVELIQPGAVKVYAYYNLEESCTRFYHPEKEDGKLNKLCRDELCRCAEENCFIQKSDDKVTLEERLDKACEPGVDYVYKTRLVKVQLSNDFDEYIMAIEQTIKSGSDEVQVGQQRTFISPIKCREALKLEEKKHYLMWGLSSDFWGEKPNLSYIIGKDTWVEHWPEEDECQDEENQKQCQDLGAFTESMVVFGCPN
Chain of UniProt P26039 (whole entry, looked up): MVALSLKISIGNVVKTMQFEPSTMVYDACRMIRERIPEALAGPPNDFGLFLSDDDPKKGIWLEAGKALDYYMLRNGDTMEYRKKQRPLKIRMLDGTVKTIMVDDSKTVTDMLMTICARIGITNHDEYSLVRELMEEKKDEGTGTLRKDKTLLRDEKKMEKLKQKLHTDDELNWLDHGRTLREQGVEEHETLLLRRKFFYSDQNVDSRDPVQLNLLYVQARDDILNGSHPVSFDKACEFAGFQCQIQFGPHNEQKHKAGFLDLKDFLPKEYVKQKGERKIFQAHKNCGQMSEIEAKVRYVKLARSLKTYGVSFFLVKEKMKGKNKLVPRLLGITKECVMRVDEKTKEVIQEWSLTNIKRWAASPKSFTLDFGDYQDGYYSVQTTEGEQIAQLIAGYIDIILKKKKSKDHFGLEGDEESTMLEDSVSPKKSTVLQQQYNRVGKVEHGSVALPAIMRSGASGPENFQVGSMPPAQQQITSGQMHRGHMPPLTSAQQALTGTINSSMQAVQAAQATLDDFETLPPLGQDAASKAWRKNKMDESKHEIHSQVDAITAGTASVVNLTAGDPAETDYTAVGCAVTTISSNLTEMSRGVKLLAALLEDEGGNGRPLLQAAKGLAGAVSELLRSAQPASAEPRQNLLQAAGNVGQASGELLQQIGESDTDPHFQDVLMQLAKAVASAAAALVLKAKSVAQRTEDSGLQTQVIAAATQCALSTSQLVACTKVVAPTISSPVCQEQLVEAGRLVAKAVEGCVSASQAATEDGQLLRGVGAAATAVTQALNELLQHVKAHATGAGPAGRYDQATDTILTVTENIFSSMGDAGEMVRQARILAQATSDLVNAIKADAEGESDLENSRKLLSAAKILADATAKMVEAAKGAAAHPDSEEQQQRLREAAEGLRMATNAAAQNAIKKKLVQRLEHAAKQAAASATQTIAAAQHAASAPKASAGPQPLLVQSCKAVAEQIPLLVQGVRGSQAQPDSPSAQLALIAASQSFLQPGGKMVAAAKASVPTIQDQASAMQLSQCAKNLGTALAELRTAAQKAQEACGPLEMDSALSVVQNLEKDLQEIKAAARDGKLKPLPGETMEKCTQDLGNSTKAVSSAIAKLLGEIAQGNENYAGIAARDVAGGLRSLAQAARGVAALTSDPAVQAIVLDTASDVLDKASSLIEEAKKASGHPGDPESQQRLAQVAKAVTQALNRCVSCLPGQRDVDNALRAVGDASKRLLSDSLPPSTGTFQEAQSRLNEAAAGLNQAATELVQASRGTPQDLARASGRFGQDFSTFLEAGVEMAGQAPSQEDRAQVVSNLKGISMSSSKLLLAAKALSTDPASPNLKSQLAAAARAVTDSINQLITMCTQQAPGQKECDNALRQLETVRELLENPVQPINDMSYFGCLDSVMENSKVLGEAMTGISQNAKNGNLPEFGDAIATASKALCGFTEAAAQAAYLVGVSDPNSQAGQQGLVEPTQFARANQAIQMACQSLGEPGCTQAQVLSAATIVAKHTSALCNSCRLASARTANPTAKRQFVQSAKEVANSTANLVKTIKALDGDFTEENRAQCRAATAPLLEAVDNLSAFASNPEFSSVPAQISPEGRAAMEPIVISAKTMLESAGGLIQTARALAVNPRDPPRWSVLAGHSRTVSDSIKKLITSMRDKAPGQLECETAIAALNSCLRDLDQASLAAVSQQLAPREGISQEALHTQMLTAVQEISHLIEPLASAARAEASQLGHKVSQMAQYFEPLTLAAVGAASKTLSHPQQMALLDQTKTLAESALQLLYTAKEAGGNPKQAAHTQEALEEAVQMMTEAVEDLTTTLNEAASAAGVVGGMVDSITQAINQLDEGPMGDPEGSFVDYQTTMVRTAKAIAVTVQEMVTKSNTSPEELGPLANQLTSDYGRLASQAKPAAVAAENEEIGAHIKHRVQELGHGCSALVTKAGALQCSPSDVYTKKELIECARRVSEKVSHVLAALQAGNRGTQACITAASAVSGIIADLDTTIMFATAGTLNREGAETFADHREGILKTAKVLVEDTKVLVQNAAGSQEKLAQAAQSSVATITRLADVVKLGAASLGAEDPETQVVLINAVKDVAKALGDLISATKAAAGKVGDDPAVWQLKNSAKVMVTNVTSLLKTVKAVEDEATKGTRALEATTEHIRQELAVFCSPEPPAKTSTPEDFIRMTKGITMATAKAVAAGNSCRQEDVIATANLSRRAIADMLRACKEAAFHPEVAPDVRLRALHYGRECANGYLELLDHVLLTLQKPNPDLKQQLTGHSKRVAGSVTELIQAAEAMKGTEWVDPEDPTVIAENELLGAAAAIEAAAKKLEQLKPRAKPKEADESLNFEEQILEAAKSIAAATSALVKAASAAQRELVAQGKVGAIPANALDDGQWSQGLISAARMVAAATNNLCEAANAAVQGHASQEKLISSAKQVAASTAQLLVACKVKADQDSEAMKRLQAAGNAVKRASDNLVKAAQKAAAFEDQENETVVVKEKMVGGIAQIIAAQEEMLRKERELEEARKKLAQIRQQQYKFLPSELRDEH
Chain of UniProt P52198 (whole entry, looked up): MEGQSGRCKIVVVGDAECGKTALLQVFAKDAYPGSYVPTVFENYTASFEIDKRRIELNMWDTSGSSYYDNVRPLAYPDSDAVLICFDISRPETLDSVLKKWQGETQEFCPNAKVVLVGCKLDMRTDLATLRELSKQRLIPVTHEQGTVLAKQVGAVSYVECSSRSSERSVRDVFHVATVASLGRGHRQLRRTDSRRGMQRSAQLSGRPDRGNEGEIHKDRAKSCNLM
Chain of UniProt P09038 (whole entry, looked up): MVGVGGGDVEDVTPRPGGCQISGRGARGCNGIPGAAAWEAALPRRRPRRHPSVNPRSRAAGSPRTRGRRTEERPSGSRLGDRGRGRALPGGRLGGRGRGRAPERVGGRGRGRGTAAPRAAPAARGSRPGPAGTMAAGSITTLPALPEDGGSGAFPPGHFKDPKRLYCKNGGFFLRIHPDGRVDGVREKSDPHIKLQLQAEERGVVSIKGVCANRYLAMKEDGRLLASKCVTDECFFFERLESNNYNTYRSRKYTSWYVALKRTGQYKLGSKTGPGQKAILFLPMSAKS
Chain of UniProt P38634 (whole entry, unmodified, looked up): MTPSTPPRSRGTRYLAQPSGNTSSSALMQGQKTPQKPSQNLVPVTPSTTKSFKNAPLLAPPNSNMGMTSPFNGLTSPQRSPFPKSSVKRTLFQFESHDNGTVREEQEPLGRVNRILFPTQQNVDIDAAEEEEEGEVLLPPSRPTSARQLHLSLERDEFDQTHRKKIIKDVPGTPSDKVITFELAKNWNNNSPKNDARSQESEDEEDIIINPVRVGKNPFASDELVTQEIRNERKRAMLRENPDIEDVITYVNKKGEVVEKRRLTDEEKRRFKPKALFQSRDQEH

Molecule	tested on	assay	test system	conditions	endpoint	result
B1 (dnaG 537-597)	dnaB (Geobacillus stearothermophilus, UniProt Q9X4C9)	pull-down	–	–	Kd	< 0.001 µM
UBP10 (Saccharomyces cerevisiae, UniProt P53874)	HTA1/HTB1 H2A/H2B heterodimer 2-132 (Saccharomyces cerevisiae)	ITC	–	–	Kd	0.267 ± 0.163 µM
B2 (Flrt3 29-359)	Unc5D 31-382 (Rattus norvegicus, UniProt F1LW30)	SPR	–	–	Kd	2 µM
KLLMIIHDRREFAKFEKEKMNAKWDTGENPIYKEAVTTVVNPKYEGK (ITGB1 752-798 S785E (Homo sapiens, UniProt P05556-1); sequence looked up)	Tln1 309-405 (Mus musculus, UniProt P26039)	NMR titration	–	–	Kd	494 µM
CALLLSAPRR (GOT2 (Gallus gallus); fluorescein label)	HSPA9 mature L450A (Homo sapiens, UniProt P38646)	FP	peptide	–	Kd	26.6 µM
petF ferredoxin (Synechocystis sp. PCC 6803, UniProt P27320)	narB M306A (Synechococcus sp. PCC 7942)	UV-visible difference titration	–	–	Kd	10.7 ± 6.8 µM
colistin	Acinetobacter baumannii	broth microdilution	clinical isolate RKI-No_272/16	–	MIC	≤ 0.5 µg/mL
PAPALPPKPPKPTT (PIK3R1 303-316 (Homo sapiens))	FYN 82-144 (Homo sapiens, UniProt P06241)	ITC	peptide	–	Kd	53.4 µM
B3 (EFR3B 716-787)	TTC7B/FAM126A 1-308	BLI	–	–	Kd	0.000405 µM
SPTF (BRIP1 peptide 990-993; N-acetyl, pS, C-amide)	BRCA1 BRCT domain	NMR titration	peptide	–	Kd	1 µM
SPTBN2 fragment (Homo sapiens) (sequence not shown)	ACTA1 F-actin (Oryctolagus cuniculus, UniProt P68135)	co-sedimentation	–	–	Kd	55.2 µM
CNNM2 CBS-pair domain (Danio rerio)	PTP4A3 1-169 (Homo sapiens, UniProt O75365)	ITC	–	20 °C	Kd	0.014 µM
B4 (Cacna1c 1647-1777)	Jph2 1-440 S165Q (Mus musculus, UniProt Q9ET78)	ITC	–	–	Kd	7.82 µM
PRPRPRPRPRPRPRPRPRPRPRPRPRPRPRPRPRPRPRPR ((PR)20 20 repeats; TAMRA label N-terminal)	FUS 267-526 (Homo sapiens, UniProt P35637)	fluorescence polarisation	peptide	–	Kd	0.102 ± 0.0131 µM
B5 (C1S 438-688 S632A)	SERPING1 111-500 K328A/K329A (Homo sapiens, UniProt P05155)	SPR	–	added: Ca2+	Kd	4.7 µM
B6 (IgG L:G68E)	IL13 fragment (Homo sapiens)	SPR	antibody	–	Kd	0.00052 µM
B7 (FLT3LG 27-185)	FLT3 27-543 (Homo sapiens, UniProt P36888)	SPR	–	–	Kd	0.0463 µM

Molecule	tested on	assay	test system	conditions	endpoint	result
B8 (PLXNA2 RBD 1490-1600)	RND2 1-227 (Homo sapiens, UniProt P52198)	SPR	–	–	Kd	8.74 ± 2.42 µM
MEAIAKYDFKATADDELSFKRGDILKVLNEECDQNWYKAELNGKDGFIPKNYIEMKPH (GRB2 N-terminal SH3 domain (Homo sapiens, UniProt P62993))	SOS1 peptide (Homo sapiens, UniProt Q07889)	NMR	–	–	Kd	210 µM
B9 (IGSF10 1646-1933)	RET 29-635 (Homo sapiens, UniProt P07949)	ITC	–	–	Kd	0.056 µM
B3 (EFR3B 716-787)	TTC7B/FAM126A FAM126A 1-308	BLI	–	–	Kd	0.000405 µM
SCN2A fragment R1914A (Homo sapiens) (sequence not shown)	CALM1 (Homo sapiens, UniProt P0DP23)	fluorescence titration	–	pH 7.4, 22 °C, added: calcium	Kd	0.298 µM
FGF2, 125I label (UniProt P09038)	FGFR1 ectodomain (Homo sapiens)	radioligand binding	–	–	Kd	0.0018 µM
KDM4A fragment (Homo sapiens)	H4C1 around K20, K20me3, 5-FAM label	fluorescence polarisation	–	–	Kd	4 ± 1.1 µM
B10 (CFH domains 1108-1231)	C3 C3dg 955-1303 (Homo sapiens, UniProt P01024)	SPR	–	–	Kd	4.4 ± 0.2 µM
ARTKQTARKSTGGKAY (H3C1 1-15; K4me1)	T1, ATRX ADD domain 167-289 K251R/F284Y (Homo sapiens)	ITC	peptide	–	Kd	21.9 µM
QEDIIRNIARHLAQVGDSMDRSIPPG (BID 79-104 (Homo sapiens, UniProt P55957); sequence looked up)	BCL2L1 1-208 N52D/N66D (Homo sapiens, UniProt Q07817-1)	ITC	peptide	–	Kd	1.1 µM
B11 (mglB)	mglA (Myxococcus xanthus, UniProt Q1DB04)	ITC	–	25 °C, one-site model, added: GTPγS 100 µM	Kd	< 0.31 µM
MBL-A mature, hydroxylysine, hydroxyproline in collagen (Rattus norvegicus, UniProt P19999)	C1r/C1s full-length tetramer (Homo sapiens)	SPR	–	added: CaCl2 140 mM	Kd	0.036 µM
B12 (Bcl2l11)	BCL2 (Homo sapiens, UniProt P10415)	FRET or BRET	–	not purified	Kd	4 µM
B13 (CKS1)	SIC1 1-215 T2A/S69A/S76A/S80A, pT45 (Saccharomyces cerevisiae, UniProt P38634)	ITC	–	–	Kd	21 µM
B14 (PUX2 1-149)	CDC48A 1-463 (Arabidopsis thaliana, UniProt P54609)	ITC	–	25 °C	Kd	59.2 ± 27.4 µM
B15 (CFH domains 1108-1231 W1183R)	C3 996-1303 (Homo sapiens, UniProt P01024)	SPR	–	–	Kd	4.9 ± 0.4 µM
CREBBP TAZ1 (Homo sapiens)	NFE2L2 99-160, fluorescein label (Homo sapiens, UniProt Q16236)	fluorescence titration	–	–	Kd	3.7 ± 10.7 µM
